Published values pooled from the literature.
A part holds a random share of what one study measured.

Series 1 — technique: protein-binding microarray; molecule type: double-stranded DNA, one strand shown; medium: in vitro; concentration: 2200 nM top; setting: 60-bp whole probe; added: salmon DNA 0.4 mg/ml; reference: random background probes; reading: higher = stronger binding; shared flanks, not repeated: GCCTAGCAC … GTCTTGATTCGCTTGACGCTGCTG
Target: Interferon regulatory factor 7, full length, phosphomimetic (IRF7, Homo sapiens, UniProt Q92985, residues 1-503, S471D/S472D/S475D/S476D/S477D/S483D/S484D/S487D)
Construct (chain): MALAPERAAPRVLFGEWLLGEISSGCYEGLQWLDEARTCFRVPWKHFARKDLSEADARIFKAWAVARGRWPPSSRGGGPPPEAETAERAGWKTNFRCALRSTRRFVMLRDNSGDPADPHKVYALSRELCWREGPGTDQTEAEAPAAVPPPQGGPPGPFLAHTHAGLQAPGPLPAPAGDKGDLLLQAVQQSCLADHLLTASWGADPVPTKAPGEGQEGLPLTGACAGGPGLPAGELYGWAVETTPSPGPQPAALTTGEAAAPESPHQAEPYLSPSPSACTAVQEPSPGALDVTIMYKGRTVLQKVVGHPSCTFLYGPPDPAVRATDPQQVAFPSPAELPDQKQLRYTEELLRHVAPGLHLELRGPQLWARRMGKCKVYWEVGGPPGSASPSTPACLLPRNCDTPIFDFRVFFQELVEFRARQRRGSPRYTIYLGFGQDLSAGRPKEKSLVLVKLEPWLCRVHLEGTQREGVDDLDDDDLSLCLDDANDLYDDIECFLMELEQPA
Oligonucleotide	fitted relative affinity [z-score]
TTAGAATTCAGACTGGATTAGTGCTAG	-0.644
GAGGGTTTCCTTTCCCTGACGTGCTAG	2.33
TTAGATTTCGGGTTTCGGTTAGTGCTA	7.17
TTACGTCTCGGACTGGGTTAGTGCTAG	1.08
GAACATACTGATTTCCACTTGTGCTAG	1.58
TCATCTGTTCTTTTCAGACTGTGCTAG	1.7
TTAGGTGTCCTACTGCTTTAGTGCTAG	0.423
TTAGGCCTCCTACTGCTTTAGTGCTAG	0.579
TTAGATATCAGTTTCGATTCGTGCTAG	11.4
TTAGGTCTCCTACTGCTTCAGTGCTAG	0.617
TTAGGTATCTACTATCGGTTAGTGCTA	0.56
ACATGCTTCGAGATCTCCGAGTGCTAG	1.16
TTAGAACTGAGTATCGATAAGTGCTAG	-0.56
GACGATCTAAGTCTCGAGACGTGCTAG	0.163
TTAGGTTTCGATATCGGTTAGTGCTAG	6.75
TCATGACTCCCTCTCTGACTGTGCTAG	0.958
GACGGTTCCCTTGTCCTGACGTGCTAG	1.36

Series 2 — technique: RNAcompete; molecule type: RNA; medium: in vitro; concentration: 20 nM; setting: 7-mer, probes averaged, single round; reference: mean of 7-mers; reading: higher = stronger binding
Target: PABPC1L2, full length, GST fusion (mouse, UniProt A0ABA7IW68)
Residues (chain): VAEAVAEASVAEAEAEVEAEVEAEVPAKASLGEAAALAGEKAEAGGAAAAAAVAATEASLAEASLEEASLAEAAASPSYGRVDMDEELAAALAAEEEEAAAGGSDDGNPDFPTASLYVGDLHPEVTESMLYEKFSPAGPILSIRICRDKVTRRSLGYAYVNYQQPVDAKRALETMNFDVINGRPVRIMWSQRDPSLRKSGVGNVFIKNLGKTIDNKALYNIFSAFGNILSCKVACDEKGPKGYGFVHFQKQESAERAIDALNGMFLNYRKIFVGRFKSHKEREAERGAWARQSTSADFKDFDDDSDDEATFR
Oligonucleotide	7-mer Z-score
GCUCUGU	-0.313
GGCGUCC	-0.135
CUCUGUA	-0.193
AUCUGCU	-0.306
UGAAGUU	-0.307
UGAGUGU	-0.213
GGCUACU	-0.012
ACGCAGG	0.263
AAUCACU	-0.0264
CAAUUUC	-0.224
CCUCCGG	-0.264
GAUGUAG	-0.155
AAAUAAU	2.3
UAUCGGA	0.113
UUAAUAC	-0.182
AUUUGGA	-0.0391
ACUGAGG	0.102
UAACUGU	-0.286
ACGCUGA	-0.117
CACCCGC	-0.318
UUAUAGC	-0.0953
GCCCUCU	-0.329
UCCACCU	-0.333

Series 3 — technique: protein binding microarray; molecule type: double-stranded DNA, one strand shown; medium: in vitro; concentration: not given; reference: not given; reading: higher = stronger binding
Target: Histone acetyltransferase KAT6A, both winged helices, GST fusion (KAT6A, Homo sapiens, UniProt Q92794, residues 1-181)
Setting: 8-mer, flanks averaged, mean of 2 arrays, mostly near background
Construct (chain): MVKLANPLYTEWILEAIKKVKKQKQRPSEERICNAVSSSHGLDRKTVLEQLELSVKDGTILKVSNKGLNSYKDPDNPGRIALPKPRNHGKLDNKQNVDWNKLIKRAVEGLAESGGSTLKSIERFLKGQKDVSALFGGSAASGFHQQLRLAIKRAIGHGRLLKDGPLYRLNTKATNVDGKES
Oligonucleotide	E-score
AAGAAATT	0.00724
AAATTTGT	-0.0947
GAGATTCA	-0.175
CCAAGCAG	-0.0979
AGCCTCCA	-0.171
CGATGGGA	0.035
CGGTGAGA	0.0189
CTGGACGC	0.184
GGCGCCGA	0.352
CAGATGTA	-0.0844
CCCAGATC	-0.14
ATCCGTGG	0.165
ACCGCCCT	-0.00394
TCCTCAAA	-0.0949
ACTCCGAC	0.0975
GAGCTTGC	-0.0892
GGTATGAA	-0.0516
AATGTACA	-0.0505
AAAACTAC	0.0569
ATAGTTGG	-0.226
TAATTTAA	-0.0469
CTCCTGAC	-0.0895
ATGTATGA	0.0722
GGTGTTAC	-0.0659
CCGCCTTC	0.0697

Series 4 — technique: RNA Bind-n-Seq; molecule type: RNA; medium: in vitro; concentration: not given; reference: input RNA pool; reading: higher = stronger binding
Target: RING finger protein unkempt homolog, zinc fingers 1-6, GST-SBP tag (UNK, Homo sapiens, UniProt Q9C0B0, residues 30-357)
Setting: RNA with constant flanks, human and mouse sites, ends assumed
Shared flanks, not repeated: GGGAGUUCUACAGUCCGACGAUC … CAACAGAGGAUUGAGCAUCA
Residues (chain): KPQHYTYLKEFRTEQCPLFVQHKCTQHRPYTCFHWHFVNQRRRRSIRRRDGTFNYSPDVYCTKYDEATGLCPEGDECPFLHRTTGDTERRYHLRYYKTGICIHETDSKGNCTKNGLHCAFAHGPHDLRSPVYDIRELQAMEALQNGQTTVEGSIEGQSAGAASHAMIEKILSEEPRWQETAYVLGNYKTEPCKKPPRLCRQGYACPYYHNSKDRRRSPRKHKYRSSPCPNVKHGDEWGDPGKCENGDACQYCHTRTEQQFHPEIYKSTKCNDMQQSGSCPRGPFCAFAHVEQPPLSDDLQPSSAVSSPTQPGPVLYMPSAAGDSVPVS
Oligonucleotide	bound/input enrichment [ratio]
GAGGUCCUGGAGCUGUUUCUCGACCCCGCUUUCUUUCAGAUGGAUACUUCCUGUGUUCAUUGGAAGUCCAUUAUUGACCAUCUUUUGACUCAUGAGAAAACAAUGUUUAAGGAUUUAAUG	0.0763
GAGAGCCGAGGGCCAGGCUCCCCGCACCCUGCCCGCCGCCCCGGGGACGGCCCGGCCAGGCGGCCCCGACGUCGCCAUGGAAACAGCCGGGGCGCGGGCGGCGCCGCGGUCGCCCGGGCG	1.32
CACCGGAGAACGGAUACCAGUCCUUGCUGAGUAGCGACGAUCAGCUCUUCAUUUACGAAACGGCCGGGGCGCUGAUUGUUAACAGUGAAUACCCCGCAGAAAAUAAGCAGGCCUUAAUGA	0.162
AUUGAGCCUGUAUUUCCAGAGAACACAGAAAACUCUGAAAAAAUAUCCUUUCAGCUUCAUUUAGCUUUAACUUCAAAUUCAUCUUGGGUUCAGUGUCCCAGCCAUUUGGAACUCAUGAAU	0.597
AAUCCGUAUGUUUAUACUUCUAAAUCUGCCUGAGUGACCUUGAAAAGGGAACCAGUGUGUUUAGGAGAAAAAAGCAACAGGAUACAAACCAAAGUCUUUUAUAAUUGUGGCAAGAGUUGA	0.161
GAUUGUUUCAUUAUUUAUCAAGGACAUCAUGGUGAUGUUGGGGCUCCCAUAGCUGAUGUUAUUCUCCCAGGAGCUGCUUACACAGAGAAGUCUGCUACAUAUGUCAACACUGAGGGUAGA	0.361
AAAGAGUGGAUAGAGUGUGCACACGGGAUCGGUGGGACCCGGGCGAAAAAGGAGUGCAAGAUAGAGUUCGAUGACUUCGAAGAGUGCUUGCUUCGGUACAAAACGAUGAGGCGAAUGCAU	0.345
CUAACCCUUCAACCCCCUCGCCUCCUACUCUGAGACAAAAGAAAAAAUAUUAAAAAAAUGCAUAGGCUUAACUCGCUGAUGAGUUAAUUGUUUUAUUUUUAAACUCUUUUUGGGUCCAGU	0.503
CAUACUCAGGGAGCCCAGCCAGGGCUAGCAGACCAGGCAGCCAAGCUGUCCUACGCCUCGGCUGAGUCGCUGGAGACAAUGUCCGAGGCCGAGCUGCCCCUGGGCUUCAGCAGGAUGAAC	0.0659
UUAAUGCCAAUUGUAUAUACACCGACGGUUGGUCUUGCCUGCUCCCAGUAUGGACACAUCUUUAGAAGACCUAAGGGAUUAUUUAUUUCGAUCUCAGACAGAGGUCAUGUUAGAUCAAUU	2.9
UUCAUUCAGUGUGGCCAUGCUGUCUGUGUGUGUCCGUGCAAUGGACCAGCAUCGACAGGAGAAGAGUCUGACACAAGGUUUUCACAGAUACAAAAAACCCCUAGGUCUUGAAAUCGUGAC	0.12

Series 5 — technique: RNA Bind-n-Seq; molecule type: RNA; medium: in vitro; concentration: 200 nM; setting: whole 134-nt RNA, ends assumed; added: 150 mM KCl; reference: input library; reading: higher = stronger binding
Target: Fragile X messenger ribonucleoprotein 1, C-terminal low-complexity region (Fmr1, Mus musculus, UniProt P35922)
Shared flanks, not repeated: GGGAGUUCUACAGUCCGACGAUC … UGGAAUUCUCGGGUGUCAAGG
Oligonucleotide	log2 enrichment
GUGAAUCAAAAACUCUGGUUUUAAGCAACCUCUCCUACAGUGCAACAGAAGAAACUCUUCAGGAAGUAUUUGAGAAAGCAACUUUUAUCA	1.18
UCCUGUGCUACACAUCGUAUGUACCGAAUCGGGAAAAAAGGAAAAAAGGGAAAAAAGGGGAAAGUAUUAUGUUACGCCGUUCGGAUCUGC	-0.546
CACAGACAACACGCACCCACACAGACACAGACGGAAGGGGUUGGGAUGGGGACAGGGUGCACAGCAGGGCGGGGUAGGACCCCAGCCCCU	1.41
CCUGUGCUACACAUCGUAUGUACCGAAUCGGGAAAAAAGGGGAAAAAAGGGAAAAAAGGGGAAAGUAUUAUGUUACGCCGUUCGGAUCUG	-0.496
GUCCUGUGCUACACAUCGUAUGUACCGAAUCAAACCCCCAAACCCAAAUUUUUUUAAAAAAGUAUUAUGUUACGCCGUUCGGAUCUGCAC	-0.0255
CACAGACAACACGCACCCACACAGACACAGAGGGAAGGGGUUGGGAUUGGGACAGGGUGCACAGCAGGGCGGGGUAGGACCCCAGCCCCU	1.32
CUGUGCUACACAUCGUAUGUACCGAAUCGGGGUUUUUGGGGAAAAAGGGGUUUUUUUGGGGAAAGUAUUAUGUUACGCCGUUCGGAUCUG	0.149
AGUCCUGUGCUACACAUCGUAUGUACCGAAUCGGCCCCCGGCCCCCGGGGCCCCCGGAAAGUAUUAUGUUACGCCGUUCGGAUCUGCACU	-0.824
CUGUGCUACACAUCGUAUGUACCGAAUCGGGCCCCCCCGGGGCCCCCCCGGGGCCCCCCCGGAAAGUAUUAUGUUACGCCGUUCGGAUCU	-1.58
UGGGAGGUGGUUUUUGUUUAUUUUUUUAGCUCAUUUCCAGGGGUGGGAAUUUUUUUUUAAUAUGUGUCAUGAAUAAAGUUGUUUUUGAAA	0.512
GCCACUGUUCACCAGUCCUACCCACACCAUGCCACACAGCUCCAUGCCCACCAGCCGCAGCCGGCUACCACGCCUACUGGAAGCCAGCCG	-0.12
UGGGAGGUGGAUUUUGUUUAUUUUUUUAGCUCAUUACCAGGGGUGGGAAUUUUUUUUUAAUAUGUGUCAUGAAUAAAGUUGUUUUUGAAA	0.152
CACAGACAACACGCACCCACACAGACACAGAGGGAAGGGGUUGGGAUGGGGACAGGGUGCACAGCAGGUCGGGGUAGGACCCCAGCCCCU	1.15
UCCUCAAGUCCUGUGCUACACAUCGUAUGUACCGAAUCGGGUGGGGUGGUGGAAAGUAUUAUGUUACGCCGUUCGGAUCUGCACUUCCAG	0.483
